Values quoted from earlier work as cited in several papers.
Protocols differ between the studies behind these lines.
UniProt Q86UE8, sequence (whole entry, looked up): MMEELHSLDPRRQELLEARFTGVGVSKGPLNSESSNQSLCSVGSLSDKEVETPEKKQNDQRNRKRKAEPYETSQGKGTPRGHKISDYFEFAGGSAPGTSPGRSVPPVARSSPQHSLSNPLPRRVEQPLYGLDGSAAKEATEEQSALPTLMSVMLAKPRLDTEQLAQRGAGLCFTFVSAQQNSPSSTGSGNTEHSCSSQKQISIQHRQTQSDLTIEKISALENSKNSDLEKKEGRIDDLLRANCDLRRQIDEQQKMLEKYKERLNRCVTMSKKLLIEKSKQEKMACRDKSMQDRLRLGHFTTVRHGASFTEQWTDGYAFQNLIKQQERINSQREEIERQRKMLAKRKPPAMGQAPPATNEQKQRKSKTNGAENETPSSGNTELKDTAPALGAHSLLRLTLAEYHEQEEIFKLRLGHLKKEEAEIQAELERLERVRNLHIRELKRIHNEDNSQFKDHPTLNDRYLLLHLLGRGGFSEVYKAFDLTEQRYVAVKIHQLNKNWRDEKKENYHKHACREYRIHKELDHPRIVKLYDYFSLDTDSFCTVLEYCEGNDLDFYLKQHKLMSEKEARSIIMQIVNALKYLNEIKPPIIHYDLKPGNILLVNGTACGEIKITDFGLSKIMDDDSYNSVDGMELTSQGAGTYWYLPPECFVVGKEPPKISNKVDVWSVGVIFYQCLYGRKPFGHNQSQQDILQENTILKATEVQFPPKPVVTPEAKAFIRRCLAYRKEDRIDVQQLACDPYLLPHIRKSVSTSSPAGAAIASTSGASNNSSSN

Structure (SMILES) | tested on | assay | system | conditions | scale | endpoint | result
O=C(c1cc(Cc2n[nH]c(=O)c3ccccc23)ccc1F)N1CCN(C(=O)C2CC2)CC1 | – | – | human | oral tablet, 200 mg twice daily, multiple dose | – | AUC(last) | 36500 ng·h/mL
Cc1cc(-c2nccc3c2ccn3CC(=O)Nc2ccc(-c3cnccn3)cn2)ccn1 | – | – | rat | 60 mg/kg/day, 1 month, repeat dosing | – | Cmax, total | 27.9 µM
Cn1ncnc1[C@H]1c2n[nH]c(=O)c3cc(F)cc(c23)N[C@@H]1c1ccc(F)cc1 | – | – | rat | 0.05 mg/kg once daily, day 28 | – | Cmax | 19.5 ng/mL
CN[C@@H](C)C(=O)N[C@H]1CN(S(=O)(=O)c2cccc(S(=O)(=O)N3CC[C@H]4CC[C@@H](C(=O)NC(c5ccccc5)c5ccccc5)N4C(=O)[C@@H](NC(=O)[C@H](C)NC)C3)c2)CC[C@H]2CC[C@@H](C(=O)NC(c3ccccc3)c3ccccc3)N2C1=O | – | – | advanced solid tumour patients | dose not given, monotherapy | – | TEAE abdominal pain incidence | 13%
CCC(CC)C(=O)O | – | scoliosis or lordosis | zebrafish embryo | nominal concentration | – | EC10 | 892 µM
c1ccc2c(c1)-c1cccc3c1c-2cc1ccccc13 | – | slow stirring | – | – | – | logKow | 6.5
C=CC(=O)NC1CCN(c2ncc3ncnc(Nc4ccc(Oc5ccc6c(c5)ncn6C)c(C)c4)c3n2)CC1 | – | – | human | 30 mg, mostly grade 1 | – | participants with TEAEs | 61.5%
Cc1ccc(NC(=O)c2ccc(CN3CCN(C)CC3)cc2)cc1Nc1nccc(-c2cncc(-c3oncc3C)c2)n1 | – | – | mouse | 100 mg/kg/day, steady state | – | Cmax | 5060 ng/mL
Cn1cnc2c(F)c(Nc3ccc(Br)cc3Cl)c(C(=O)NOCCO)cc21 | – | – | human, plasma | 75 mg, given alone | – | AUC, geometric mean | 4480 ng·h/mL
CCOC(=O)C1=C(C)NC(C)=C(C(=O)OC)C1c1cccc(Cl)c1Cl (centres unmarked) | – | – | – | – | – | logD | 4.76
Nc1nc2cc(-c3ccc4ncc(C(=O)N5CCOCC5)n4c3)ccc2o1 | – | – | rat | – | – | well tolerated dose | ≤ 50 mg/kg/day
N#Cc1cc(NC(=O)[C@H]2c3ccccc3C(=O)N(CC(F)(F)F)[C@@H]2c2cccnc2)ccc1F | – | – | dog, plasma | oral, 30 mg/kg | – | Cmax | > 20 µM
Cc1c(C(=O)O)ccc2c3n(nc12)[C@@H]1[C@H](C3)N(CC2CC2)[C@@]2(C(=O)Nc3cc(Cl)ccc32)[C@H]1c1cccc(Cl)c1F | – | – | FVB mice, brain, plasma | – | – | Kp | 0.009
CN(C)C(=O)c1cc2cnc(Nc3ccc(N4CCNCC4)cn3)nc2n1C1CCCC1 | – | refers to: constipation | advanced solid tumour or lymphoma patients | dose not given, continuous dosing | relative to: patients | adverse event incidence | 21.1%
C[C@H](C(=O)NCc1ccccc1)N1C(=O)CCC1=O | – | electroshock seizures | CD-1 mouse | intraperitoneal, 32 mA, 6 Hz | – | protective index | > 32
CC(C)(C)NCC(O)c1cc(O)cc(O)c1 (centres unmarked) | – | – | human, plasma | inhaled | – | Tlast | 4 h
Nc1ccn([C@H]2CO[C@@H](CO)S2)c(=O)n1 | – | – | rat | 10 mg/kg | – | oral bioavailability | 68%
Nc1cc(C(F)(F)F)c(-c2nc(N3CCOCC3)nc(N3CCOCC3)n2)cn1 | TLK2 (Homo sapiens, UniProt Q86UE8) | enzyme activity | – | 10 µM | relative to: untreated | remaining activity | 74%
N#C[C@@]1(c2ccc3c(N)ncnn23)O[C@H](CO)[C@@H](O)[C@H]1O | – | – | dog | – | – | oral bioavailability | 85%
CCn1cc(-c2cc(Cn3ccnc3)cc3c2CCN([C@H](c2cc(OC)ccn2)C2CC2)C3=O)c(C(F)(F)F)n1 | – | – | CD-1 mouse | intravenous, 3 mg/kg | – | clearance | 20 mL/min/kg
CO[C@@H](C)Cn1c(=O)n(C)c2cnc3ccc(-c4cncc(C(C)(C)O)c4)cc3c21 | – | refers to: rash | cancer patients | dose not given, monotherapy | – | patients with related adverse event | 13.5%
NC12CNCCNCC(N)(CNCCNC1)CNCCNC2 | – | – | – | ammonium group deprotonation | – | pKa1 | ~6.4
CO[C@H]1/C=C/O[C@@]2(C)Oc3c(C)c(O)c4c(O)c(c(/C=N/N5CCN(C)CC5)c(O)c4c3C2=O)NC(=O)/C(C)=C\C=C\[C@H](C)[C@H](O)[C@@H](C)[C@@H](O)[C@@H](C)[C@H](OC(C)=O)[C@@H]1C | – | – | mouse | 10 mg/kg | – | Cmax | 12 µM

A few entries again:
Structure (SMILES) | tested on | assay | system | conditions | scale | endpoint | result
CN[C@@H](C)C(=O)N[C@H]1CN(S(=O)(=O)c2cccc(S(=O)(=O)N3CC[C@H]4CC[C@@H](C(=O)NC(c5ccccc5)c5ccccc5)N4C(=O)[C@@H](NC(=O)[C@H](C)NC)C3)c2)CC[C@H]2CC[C@@H](C(=O)NC(c3ccccc3)c3ccccc3)N2C1=O | – | – | advanced solid tumour patients | dose not given, monotherapy | – | TEAE abdominal pain incidence | 13%
CCC(CC)C(=O)O | – | scoliosis or lordosis | zebrafish embryo | nominal concentration | – | EC10 | 892 µM
